Results collected from several papers.
Compare with care: the assays were run in different laboratories. Numbers after ± are the reported error.

COc1c(C)c2c(c(O)c1C/C=C(\C)CCC(=O)O)C(=O)OC2 — IC50 (SK-N-SH; cell proliferation): 617 nM
COc1cc(CCC[P+](c2ccccc2)(c2ccccc2)c2ccccc2)c(OC)c2c1OCO2.[I-] — LC50 (UACC-62; SRB): -4.52 log M
CCN(CC)c1ccc(C=NNC(=O)CSc2nc3ccccc3c(=O)n2Cc2ccc(S(N)(=O)=O)cc2)c(O)c1 — CC50 (CCRF-CEM; NCI five-dose screen): > 100000 nM
COc1c(CCC[P+](c2ccccc2)(c2ccccc2)c2ccccc2)cc2c(c1OC)OCO2.[I-] — Log10TGI (CCRF-CEM; SRB): > -4 log M
C/C=C(/C)C(=O)O[C@H]1C(C)=C2[C@H]([C@@H]1OC(=O)CCCCCCC)[C@@](C)(OC(C)=O)C[C@H](OC(=O)CCC)[C@@]1(O)[C@H]2OC(=O)[C@@]1(C)O — normalized enrichment score (HEK-293T; RNA-seq GSEA, item: Hallmark cholesterol homeostasis; 500 nM, 6 h; direction not given): 2.13
CC(C)N1CCC(NC2CCN(c3cccc(-c4cc5cc(F)ccc5[nH]4)c3)CC2)CC1 — CC50 (PC-3): 5930 nM
CN1CCN(S(=O)(=O)c2cc([N+](=O)[O-])ccc2N(CCOS(C)(=O)=O)CCOS(C)(=O)=O)CC1 — IC50 fold change (sample C B-ALL PDX cells; cell viability; ex vivo; 48 h, added: AKR1C3 inhibitor; baseline: with inhibitor over alone): 87.4
Nc1ncc(-c2nc(N3CCOCC3)nc(N3CCOCC3)n2)c(C(F)F)n1 — GI50 (CCRF-CEM; 72 h): 92 nM
COc1ccc2c(c1)[nH]c1c(C)nccc12 — DNA methylation (DU-145; bisulfite pyrosequencing, item: RASSF1A promoter CpG site 6; 10 µM, 16 h): 88.1%
Oc1cc(O)cc(-c2cc3ccc(O)cc3o2)c1 — cell survival (3T3; cell growth, MTT; 3.6 µg/mL, 48 h): 79.8 ± 1.2%
Cn1cncc1C1=CN(c2ncnc3[nH]cnc23)CCS1 — CC50 (BT-549): 97700 nM
Oc1ccc(C2(c3ccc(O)cc3)c3ccccc3-c3ccccc32)cc1 — G1 phase cells (HepG2 spheroids; Hoechst flow cytometry; 0.10 µM, 96 h): 73.3 ± 6.64%
Cc1cccc(-c2cccc(C)n2)n1.Cc1cccc(-c2cccc(C)n2)n1.F[P-](F)(F)(F)(F)F.F[P-](F)(F)(F)(F)F.[Ru+2].c1ccc2cc(-c3nc4c5cccnc5c5ncccc5c4[nH]3)ccc2c1 — phototoxicity index (SK-MEL-28; 1% O2, added: green light 523 nm, 100 J/cm2; baseline: dark over light EC50): 1
Nc1ncnc2c1ncn2[C@@H]1O[C@@H]2COP(=O)(O)O[C@H]3[C@@H](O)[C@H](n4cnc5c(=O)[nH]cnc54)O[C@@H]3COP(=O)(O)O[C@H]2[C@H]1O — fold enrichment (HFF-1; RNA sequencing, item: Reactome MHC class I peptide loading; upregulated pathways; baseline: mock): 15.3
CC(C)=CCc1c(O)cc(O)cc1-c1cc2ccc(O)c(CC=C(C)C)c2o1 — cell survival (MCF7; cell growth, MTT; 25 µg/mL, 48 h): 69.58 ± 0.62%
CN1CCN(C2(CNC3CCN(c4cccc(-c5cc6cc(F)ccc6[nH]5)c4)CC3)CCC2)CC1 — GI50 (SK-MEL-2): 2130 nM
O=C1CCP(=S)(c2ccccc2)CC1 — necrotic cells (HaCaT; annexin V/PI flow cytometry; IC50, 72 h): 0.1%
C[C@H]1[C@H](C)CC[C@]2(C(=O)O)CC[C@]3(C)C(=CC[C@@H]4[C@@]5(C)CC[C@H](O)C(C)(C)[C@@H]5CC[C@]43C)[C@H]12 — cell survival (MCF7; cell growth, MTT; 1.8 µg/mL, 48 h): 82.9 ± 0.42%

For quick reference, copied from above:
Nc1ncnc2c1ncn2[C@@H]1O[C@@H]2COP(=O)(O)O[C@H]3[C@@H](O)[C@H](n4cnc5c(=O)[nH]cnc54)O[C@@H]3COP(=O)(O)O[C@H]2[C@H]1O — fold enrichment (HFF-1; RNA sequencing, item: Reactome MHC class I peptide loading; upregulated pathways; baseline: mock): 15.3
